Measured values from different studies.
Every numbered part comes from another study and shows a few of its results, in no order. Positions count from the first letter of the parent shown.
UniProt P16591, sequence (whole entry, looked up): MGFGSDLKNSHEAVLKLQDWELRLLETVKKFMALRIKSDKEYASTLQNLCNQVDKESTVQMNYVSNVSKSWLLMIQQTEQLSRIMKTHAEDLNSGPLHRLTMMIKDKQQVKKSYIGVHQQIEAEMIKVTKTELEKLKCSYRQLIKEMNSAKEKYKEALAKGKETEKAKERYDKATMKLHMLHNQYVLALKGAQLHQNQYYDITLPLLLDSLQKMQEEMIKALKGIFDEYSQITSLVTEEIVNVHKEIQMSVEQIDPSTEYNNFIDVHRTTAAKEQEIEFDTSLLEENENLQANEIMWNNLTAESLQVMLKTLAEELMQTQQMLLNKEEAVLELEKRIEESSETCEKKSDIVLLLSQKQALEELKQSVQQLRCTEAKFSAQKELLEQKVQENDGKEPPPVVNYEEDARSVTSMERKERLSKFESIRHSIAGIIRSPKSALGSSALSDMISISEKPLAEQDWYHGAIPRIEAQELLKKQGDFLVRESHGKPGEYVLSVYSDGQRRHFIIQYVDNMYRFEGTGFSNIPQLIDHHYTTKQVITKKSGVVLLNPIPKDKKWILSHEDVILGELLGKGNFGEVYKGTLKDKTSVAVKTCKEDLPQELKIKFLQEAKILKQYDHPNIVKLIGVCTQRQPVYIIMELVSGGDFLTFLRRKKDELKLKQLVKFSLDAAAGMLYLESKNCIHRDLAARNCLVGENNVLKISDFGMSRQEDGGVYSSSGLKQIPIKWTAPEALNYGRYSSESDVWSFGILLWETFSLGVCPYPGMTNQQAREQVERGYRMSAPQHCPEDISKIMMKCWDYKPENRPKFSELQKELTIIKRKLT
UniProt Q16513, sequence (whole entry, looked up): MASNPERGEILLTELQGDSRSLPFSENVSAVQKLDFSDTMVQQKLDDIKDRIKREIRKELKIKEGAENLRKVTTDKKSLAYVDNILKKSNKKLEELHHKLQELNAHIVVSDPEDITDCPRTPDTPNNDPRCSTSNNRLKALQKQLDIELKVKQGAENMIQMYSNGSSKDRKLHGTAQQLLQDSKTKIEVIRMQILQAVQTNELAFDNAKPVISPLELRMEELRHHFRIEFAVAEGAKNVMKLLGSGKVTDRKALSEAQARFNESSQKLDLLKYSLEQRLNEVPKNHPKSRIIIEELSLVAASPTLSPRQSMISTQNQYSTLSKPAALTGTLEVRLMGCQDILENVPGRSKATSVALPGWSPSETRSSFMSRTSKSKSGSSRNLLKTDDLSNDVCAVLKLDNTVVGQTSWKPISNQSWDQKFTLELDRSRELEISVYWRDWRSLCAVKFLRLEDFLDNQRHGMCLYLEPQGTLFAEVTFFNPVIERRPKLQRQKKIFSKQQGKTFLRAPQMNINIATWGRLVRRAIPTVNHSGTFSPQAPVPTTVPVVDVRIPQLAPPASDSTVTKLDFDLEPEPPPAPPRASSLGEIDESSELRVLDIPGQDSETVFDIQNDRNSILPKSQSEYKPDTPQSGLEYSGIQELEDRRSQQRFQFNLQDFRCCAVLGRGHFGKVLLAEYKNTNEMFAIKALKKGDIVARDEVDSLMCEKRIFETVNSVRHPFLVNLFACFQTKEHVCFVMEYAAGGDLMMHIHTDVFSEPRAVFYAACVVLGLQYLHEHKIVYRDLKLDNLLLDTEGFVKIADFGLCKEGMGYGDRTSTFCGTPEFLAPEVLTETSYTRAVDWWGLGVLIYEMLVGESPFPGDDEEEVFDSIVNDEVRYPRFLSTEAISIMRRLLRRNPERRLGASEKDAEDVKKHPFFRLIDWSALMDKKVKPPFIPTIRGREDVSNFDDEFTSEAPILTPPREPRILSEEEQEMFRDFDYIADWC
UniProt O60674, sequence (whole entry, looked up): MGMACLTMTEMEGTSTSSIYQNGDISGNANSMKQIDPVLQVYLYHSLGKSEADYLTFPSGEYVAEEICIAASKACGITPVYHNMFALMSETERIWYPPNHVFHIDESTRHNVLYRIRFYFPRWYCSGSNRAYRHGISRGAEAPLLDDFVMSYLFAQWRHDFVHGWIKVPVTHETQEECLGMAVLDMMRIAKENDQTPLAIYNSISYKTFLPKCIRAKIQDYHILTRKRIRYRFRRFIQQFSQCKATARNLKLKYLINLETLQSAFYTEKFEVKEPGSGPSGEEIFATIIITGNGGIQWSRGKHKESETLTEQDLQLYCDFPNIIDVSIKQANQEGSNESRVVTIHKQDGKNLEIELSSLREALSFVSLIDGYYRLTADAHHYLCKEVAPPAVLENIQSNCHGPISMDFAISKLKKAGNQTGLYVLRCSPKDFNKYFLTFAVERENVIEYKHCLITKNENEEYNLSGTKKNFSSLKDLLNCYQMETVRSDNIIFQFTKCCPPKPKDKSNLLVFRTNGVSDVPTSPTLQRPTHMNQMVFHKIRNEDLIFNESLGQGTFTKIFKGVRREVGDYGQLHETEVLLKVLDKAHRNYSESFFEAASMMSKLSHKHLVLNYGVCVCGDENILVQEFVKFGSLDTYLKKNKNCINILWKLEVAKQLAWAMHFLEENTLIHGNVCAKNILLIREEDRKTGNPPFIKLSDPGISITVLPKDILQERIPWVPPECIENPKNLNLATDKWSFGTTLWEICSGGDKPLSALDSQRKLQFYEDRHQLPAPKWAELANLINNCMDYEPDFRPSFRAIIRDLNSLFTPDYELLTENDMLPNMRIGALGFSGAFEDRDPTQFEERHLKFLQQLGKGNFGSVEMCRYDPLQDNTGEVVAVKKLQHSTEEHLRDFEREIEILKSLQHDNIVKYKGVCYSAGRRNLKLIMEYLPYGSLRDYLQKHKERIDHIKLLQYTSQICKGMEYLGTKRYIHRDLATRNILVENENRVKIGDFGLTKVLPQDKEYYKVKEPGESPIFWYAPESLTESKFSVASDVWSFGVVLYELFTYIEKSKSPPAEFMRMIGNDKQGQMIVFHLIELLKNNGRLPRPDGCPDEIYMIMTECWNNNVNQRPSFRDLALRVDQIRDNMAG
UniProt P21709, sequence (whole entry, looked up): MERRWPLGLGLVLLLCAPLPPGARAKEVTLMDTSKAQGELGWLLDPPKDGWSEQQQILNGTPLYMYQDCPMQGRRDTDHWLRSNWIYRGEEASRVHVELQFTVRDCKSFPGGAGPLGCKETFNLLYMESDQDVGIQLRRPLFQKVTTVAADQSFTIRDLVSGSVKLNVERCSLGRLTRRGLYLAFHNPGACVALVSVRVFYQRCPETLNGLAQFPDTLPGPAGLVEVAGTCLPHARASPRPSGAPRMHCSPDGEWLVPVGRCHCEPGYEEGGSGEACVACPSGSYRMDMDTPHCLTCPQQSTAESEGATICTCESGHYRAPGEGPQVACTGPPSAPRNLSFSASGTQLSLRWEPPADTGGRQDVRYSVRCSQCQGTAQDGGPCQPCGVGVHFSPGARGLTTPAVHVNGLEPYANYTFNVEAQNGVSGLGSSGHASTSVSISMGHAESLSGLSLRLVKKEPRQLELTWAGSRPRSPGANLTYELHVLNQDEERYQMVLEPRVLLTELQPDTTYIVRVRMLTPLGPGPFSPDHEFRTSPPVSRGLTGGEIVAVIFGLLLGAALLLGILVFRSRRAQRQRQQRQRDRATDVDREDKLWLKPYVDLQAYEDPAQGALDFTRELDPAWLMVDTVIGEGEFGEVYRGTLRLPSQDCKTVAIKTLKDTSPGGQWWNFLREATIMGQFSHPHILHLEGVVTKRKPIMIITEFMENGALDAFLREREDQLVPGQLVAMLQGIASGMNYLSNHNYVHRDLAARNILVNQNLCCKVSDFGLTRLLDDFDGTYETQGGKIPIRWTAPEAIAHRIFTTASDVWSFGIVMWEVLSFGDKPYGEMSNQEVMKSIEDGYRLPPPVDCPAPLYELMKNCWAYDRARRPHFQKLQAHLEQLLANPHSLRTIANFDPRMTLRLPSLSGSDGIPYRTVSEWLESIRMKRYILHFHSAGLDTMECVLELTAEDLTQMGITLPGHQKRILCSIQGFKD
UniProt Q13153, sequence (whole entry, looked up): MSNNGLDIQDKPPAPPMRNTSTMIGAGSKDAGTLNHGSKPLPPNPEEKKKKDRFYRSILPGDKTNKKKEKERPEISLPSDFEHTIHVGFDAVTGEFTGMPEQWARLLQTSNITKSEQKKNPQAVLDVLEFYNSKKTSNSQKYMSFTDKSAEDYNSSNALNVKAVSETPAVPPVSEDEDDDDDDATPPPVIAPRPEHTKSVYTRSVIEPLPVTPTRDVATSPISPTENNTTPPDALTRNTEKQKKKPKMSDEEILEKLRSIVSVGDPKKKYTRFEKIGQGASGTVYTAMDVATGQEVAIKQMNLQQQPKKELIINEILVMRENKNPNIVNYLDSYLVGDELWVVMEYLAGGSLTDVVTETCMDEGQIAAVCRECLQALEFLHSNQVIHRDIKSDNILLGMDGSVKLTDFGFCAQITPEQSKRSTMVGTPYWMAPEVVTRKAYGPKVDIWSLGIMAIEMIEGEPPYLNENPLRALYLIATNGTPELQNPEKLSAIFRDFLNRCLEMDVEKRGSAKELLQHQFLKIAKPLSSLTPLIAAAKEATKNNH

Sample 1
Target: CRIPT, C-terminal peptide
Technique: DHFR complementation, deep sequencing
Sample: yeast
Notes: single substitutions, model-inferred values
Reference: wild type
Direction: higher = weaker binding
Measurement: binding free energy change
Starting sequence: ERBIN, PDZ domain 1 (human); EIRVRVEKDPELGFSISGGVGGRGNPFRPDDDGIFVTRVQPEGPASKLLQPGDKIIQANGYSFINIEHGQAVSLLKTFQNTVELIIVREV; partner TKNYKQTSV
I55S: 0.97 kcal/mol
R88V: 0.255 kcal/mol
P26C: 0.8 kcal/mol
P10L: -0.477 kcal/mol
G13H: 1.5 kcal/mol
E1A: 0.202 kcal/mol
E89Y: 0.0873 kcal/mol
D9Y: 0.582 kcal/mol

Sample 2
Target: Aurora kinase A (AURKA, Homo sapiens, UniProt O14965)
UniProt O14965, sequence (whole entry, looked up): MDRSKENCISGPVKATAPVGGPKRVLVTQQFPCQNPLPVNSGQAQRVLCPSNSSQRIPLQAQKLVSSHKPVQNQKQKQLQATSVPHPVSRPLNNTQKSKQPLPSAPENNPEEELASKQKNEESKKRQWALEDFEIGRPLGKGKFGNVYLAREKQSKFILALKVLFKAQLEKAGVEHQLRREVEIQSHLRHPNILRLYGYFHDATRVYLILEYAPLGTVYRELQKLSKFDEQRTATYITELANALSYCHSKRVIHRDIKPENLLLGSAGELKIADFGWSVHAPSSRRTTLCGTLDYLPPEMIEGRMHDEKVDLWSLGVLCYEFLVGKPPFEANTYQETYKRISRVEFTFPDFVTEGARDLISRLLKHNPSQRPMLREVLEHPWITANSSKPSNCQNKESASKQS
Read-out: enzyme activity
Action: inhibitor
Concentration: 0.5 µM
Reference: control
Measurement: remaining activity
O=c1cc(-c2cccc3c2Sc2ccccc2S3)oc(N2CCOCC2)c1: 91.7%
c1ccc(-c2[nH]ncc2-c2ccnc3ccccc23)nc1: 95.4%
CCN(CC)CCNC(=O)c1c(C)[nH]c(/C=C2\C(=O)Nc3ccc(Cl)cc32)c1C: 80.3%
CN([C@@H](Cc1ccc(OS(=O)(=O)c2cccc3cnccc23)cc1)C(=O)N1CCN(c2ccccc2)CC1)S(=O)(=O)c1cccc2cnccc12: 86.2%
Cc1cn(-c2cc(NC(=O)c3ccc(C)c(Nc4nccc(-c5cccnc5)n4)c3)cc(C(F)(F)F)c2)cn1: 78.9%
COc1cc2ncnc(Nc3cccc(Cl)c3)c2cc1OC: 93.3%
Cc1nc2cc3nc(-c4cccs4)cnc3cc2n1C: 84.8%
CCOc1nc(NC(=O)Cc2cc(OC)ccc2OC)cc(N)c1C#N: 104%
O=C1c2ccccc2-c2n[nH]c3cccc1c23: 32.2%
Cn1nc2c3c(cccc31)C(=O)c1ccccc1-2: 89.4%
Ic1cccc(CSc2nnc(-c3ccncc3)o2)c1: 95.8%
COc1cc2ncnc(Nc3ccc(O)c(Br)c3)c2cc1OC: 83.1%
O=C1C(Cl)=C(N2C(=O)CCC2=O)C(=O)c2ccccc21: 104%

Sample 3
Target: Interferon regulatory factor 1, DNA-binding domain (IRF1, Homo sapiens, UniProt P10914, residues 1-114)
Technique: protein-binding microarray
Molecule type: hairpin DNA
Sample: in vitro
Concentration: not given
Notes: whole hairpin DNA, median over replicate spots
Reference: not given
Direction: higher = stronger binding
Measurement: median fluorescence
Shared flanks, not repeated: GAGGCCCG … CGGGCCTCACAC
Residues (chain): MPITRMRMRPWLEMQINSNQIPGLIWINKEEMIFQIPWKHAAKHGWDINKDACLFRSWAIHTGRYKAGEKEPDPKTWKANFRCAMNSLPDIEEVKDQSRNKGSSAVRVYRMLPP
AAAGCGAAACGCCTCCTGGCGTTTCGCTTT (5mC at 13 33): 902 a.u.
AAAGTGCGACGCCTCCTGGCGTCGCACTTT (5mC at 15 31): 522 a.u.
AAACGGAAACGCCTCCTGGCGTTTCCGTTT (5mC at 12 34): 526 a.u.
CAAGTGAAACGCCTCCTGGCGTTTCACTTG (5mC at 9): 592 a.u.
AACGTGAAACGCCTCCTGGCGTTTCACGTT (5mC at 11): 535 a.u.
ACGGCGAAACGCCTCCTGGCGTTTCGCCGT (5mC at 10 36): 506 a.u.
AAAGTAAAACGCCTCCTGGCGTTTTACTTT: 546 a.u.
AAAGTGAAGCGCCTCCTGGCGCTTCACTTT: 556 a.u.

Sample 4
SMILES: COc1cc(-c2cn(C3CCc4ccccc4N(CC(F)(F)F)C3=O)nn2)ccc1-n1ccc(C)n1 (stereo not drawn)
Technique: competition with immobilised ligand
Concentration: 1 µM
Measurement: remaining binding
LTK (Homo sapiens, UniProt P29376); cell-free assay: 100%
CDK2 (Homo sapiens, UniProt P24941); cell-free assay: 100%
JAK2 (Homo sapiens, UniProt O60674); binding: 34%
FLT1 (Homo sapiens, UniProt P17948); cell-free assay: 100%
PKN2 (Homo sapiens, UniProt Q16513); cell-free assay: 98%
PIP4K2B (Homo sapiens, UniProt P78356); cell-free assay: 65%
PAK1 (Homo sapiens, UniProt Q13153); cell-free assay: 100%
WEE2 (Homo sapiens, UniProt P0C1S8); cell-free assay: 100%
FER (Homo sapiens, UniProt P16591); cell-free assay: 100%
Macrophage colony-stimulating factor 1 receptor, autoinhibited (CSF1R, Homo sapiens, UniProt P07333); cell-free assay: 93%
EPHA1 (Homo sapiens, UniProt P21709); cell-free assay: 89%
EGFR (Homo sapiens, UniProt P00533, A750P/del747-749); cell-free assay: 100%
Cyclin-dependent kinase 4, with cyclin D3 (CDK4, Homo sapiens, UniProt P11802); cell-free assay: 86%

Repeated from above (sample 2):
CCOc1nc(NC(=O)Cc2cc(OC)ccc2OC)cc(N)c1C#N: 104%
COc1cc2ncnc(Nc3cccc(Cl)c3)c2cc1OC: 93.3%
c1ccc(-c2[nH]ncc2-c2ccnc3ccccc23)nc1: 95.4%
Cc1nc2cc3nc(-c4cccs4)cnc3cc2n1C: 84.8%
CCN(CC)CCNC(=O)c1c(C)[nH]c(/C=C2\C(=O)Nc3ccc(Cl)cc32)c1C: 80.3%
Ic1cccc(CSc2nnc(-c3ccncc3)o2)c1: 95.8%
COc1cc2ncnc(Nc3ccc(O)c(Br)c3)c2cc1OC: 83.1%
